Assay results of several laboratories.
Numbered parts are unrelated; each lists some results of a single study.

Series 1
Target: Prothrombin, mature alpha-thrombin (F2, Homo sapiens, UniProt P00734)
Technique: aptamer microarray, sandwich
Form: DNA with 2'F-ANA
Medium: in vitro
Tested at: 200 nM
Setting: whole 15-mer aptamer, many near background
With: Cy3 exosite-II aptamer, 400 nM
Reading: higher = stronger binding
Strand: GGTTGGTGTGGTTGG
| Modification | mean fluorescence intensity [a.u.] |
| --- | --- |
| 2'F-ANA at 1 3 6 12 15 | 443 |
| 2'F-ANA at 1 2 6 7 8 13 14 | 368 |
| 2'F-ANA at 2 3 4 5 11 15 | 78.6 |
| 2'F-ANA at 1 3 4 5 6 10 15 | 76.4 |
| 2'F-ANA at 2 3 4 9 12 | 1000 |
| 2'F-ANA at 2 3 4 6 7 8 9 10 11 12 | 239 |
| 2'F-ANA at 1 4 6 7 11 12 13 | 152 |
| 2'F-ANA at 6 7 9 10 11 12 13 14 | 104 |
| 2'F-ANA at 2 7 8 11 13 14 15 | 133 |
| 2'F-ANA at 1 2 4 6 7 8 9 11 15 | 99.7 |
| 2'F-ANA at 1 5 7 8 11 12 13 15 | 75 |
| 2'F-ANA at 3 4 5 6 7 12 15 | 195 |
| 2'F-ANA at 1 2 6 12 13 14 15 | 62.4 |
| 2'F-ANA at 3 4 5 7 9 11 12 14 15 | 56.5 |
| 2'F-ANA at 1 2 3 5 6 7 8 11 12 13 15 | 83.1 |
| 2'F-ANA at 1 2 3 4 5 6 9 10 13 14 | 68.7 |
| 2'F-ANA at 1 2 4 6 10 11 14 15 | 47.6 |
| 2'F-ANA at 2 3 5 6 7 11 14 15 | 50.5 |
| 2'F-ANA at 1 4 5 8 10 13 | 46.9 |
| 2'F-ANA at 3 4 7 11 12 13 15 | 730 |
| 2'F-ANA at 1 3 4 5 8 10 11 | 51 |
| 2'F-ANA at 2 3 5 7 8 9 14 | 58.3 |
| 2'F-ANA at 2 3 8 10 11 13 14 | 235 |
| 2'F-ANA at 1 2 3 6 9 10 11 12 14 | 90.9 |
| 2'F-ANA at 5 6 7 9 13 14 | 44.7 |

Series 2
Target: RNA binding protein fox-1 homolog 2, RRM domain, GST-SBP tag (RBFOX2, Homo sapiens, UniProt O43251-10, residues 100-194)
Technique: RNA Bind-n-Seq
Form: RNA
Medium: in vitro
Tested at: 365 nM
Setting: natural RNA segment, single round, ends assumed
Relative to: no-protein control
Reading: higher = stronger binding
All sequences stand within: GGGAGUUCUACAGUCCGACGAUC … UGGAAUUCUCGGGUGCCAA
Target sequence (chain): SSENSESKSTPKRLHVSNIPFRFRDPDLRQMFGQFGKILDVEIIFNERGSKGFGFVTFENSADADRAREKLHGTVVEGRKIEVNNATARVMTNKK
| Strand | RBNS enrichment (R) |
| --- | --- |
| GGCCCUCGACCUAACAUCUGUGGCAUCUGCGGGAAGAGCUUUGGACGAGGCUCGACCCUGAUCCAGCACCAGCGCAUCCAUACCGGCGAGAAGCCUUACAAAUGUGAGGU | 0.579 |
| UAAUCCUAGCACUUUGAGAGGCUAAGAAGGGAGGAUCACUUGAACCCAGGAGUUCAAGACCAGCCUGAGAAACAUAGUGAGACCCUGUCUCUAAAAAAAUAAAAACUUAG | 0.429 |
| CCGCCACCAAGAAUCCAAAACCUAUUUUUGACUUGGAGAGACUUGCUUUUGUUGGUUCCGCCCGUGGAGACGACGAUAGUGUUUCUGUAUAAUAAAGUGUCUGCCGGCUC | 0.293 |
| CCUCUGACAUACUCCCCACACCCAGUUGAUGGCUUUCCGUAAUAAAAAGAUUGGGAUUUCCUUUUGAUUGCGCGUUUGUGUGUUUCUGUAUUAGAAAAGCCUGACAACUG | 0.443 |
| GAAGGAUUGUAAUGUCAGCAGGUGUUGCCUGAAAGAGUUCUGUGUAGACACUUCUGGGACGUUGCUGCGCAUGCAGCAUCGGAAGGCAGCACAGGCGCUGGCAGUGGAUA | 0.258 |
| UGUGUGGUGUCUAGGAAAAUCAUAUAUAUUUUUUUCUCCAAGAAAUAAAUUCAUCCUGGACAUUGGCCAUACAGCUUUUUAAAAUUAUUACUUUGUAUGUUCAAGUGAUA | 1.68 |
| CCCCAUGCAGUGUCAACUGAUGUUUAAGCUACAGAGCAUUGUUGUAGUGGUGAGGGCCCUCUGUUGCAGGGGCAUGGGGAAAUGCAUAUAUUAAUCAGGGGCUGGAGGAG | 10.9 |
| AUUAUUAAAGCUGUGUUAUUUUCCACAGAAUAUAGAAUAUAUAUUUUUUUCGUGUGUGUUUUUGUUAACUACGCUACAGAUAUUGAAUGCACCUUGAGAUAAUUUAGUGU | 1.91 |
| GCAGCAGGUGGCUCUUCUGCUGGGGCUGACUUGUCCAGAAGGGGACAAAGUGCAAUACAGAGCCUUCCCUACCCUGACGCCUCCCAGUCAUCAUCUCCAGAACUCCCAGC | 0.662 |
| UGUGAACCCCCUGCAGCCCUGUGAGGCCCCCCGAAGCCCUGUGAGGCCCCCCGAAGCCCUGUGAACCACCUGCUGCCCUGUGAGGCCCCCAAAGCCCUGUGAACUGCCUG | 0.644 |
| UAAUACACAUCUGCUUCAAAAUGAACAUAUUUCAUAAAAUUGGCAUCAAUUUUAAUGACGCUCCUGGUAUGGAACCUCAGAUAUACCCUAUUGGAGACAAUCCUUUGAUC | 0.259 |
| CCACUGUGGUCAAAGCACGAAUUGGAAGUUCUCAGAGACAACACCAGUCAGCAGCCAAAGACCUAACUCAGUCACCUGAAAUGUCACCAACAACAAUCCAGGUCACAUAC | 0.326 |

Series 3
Target: Sal-like protein 4, full length isoform A (SALL4, Homo sapiens, UniProt Q9UJQ4, residues 1-1053)
Chain of UniProt Q9UJQ4 (whole entry, looked up): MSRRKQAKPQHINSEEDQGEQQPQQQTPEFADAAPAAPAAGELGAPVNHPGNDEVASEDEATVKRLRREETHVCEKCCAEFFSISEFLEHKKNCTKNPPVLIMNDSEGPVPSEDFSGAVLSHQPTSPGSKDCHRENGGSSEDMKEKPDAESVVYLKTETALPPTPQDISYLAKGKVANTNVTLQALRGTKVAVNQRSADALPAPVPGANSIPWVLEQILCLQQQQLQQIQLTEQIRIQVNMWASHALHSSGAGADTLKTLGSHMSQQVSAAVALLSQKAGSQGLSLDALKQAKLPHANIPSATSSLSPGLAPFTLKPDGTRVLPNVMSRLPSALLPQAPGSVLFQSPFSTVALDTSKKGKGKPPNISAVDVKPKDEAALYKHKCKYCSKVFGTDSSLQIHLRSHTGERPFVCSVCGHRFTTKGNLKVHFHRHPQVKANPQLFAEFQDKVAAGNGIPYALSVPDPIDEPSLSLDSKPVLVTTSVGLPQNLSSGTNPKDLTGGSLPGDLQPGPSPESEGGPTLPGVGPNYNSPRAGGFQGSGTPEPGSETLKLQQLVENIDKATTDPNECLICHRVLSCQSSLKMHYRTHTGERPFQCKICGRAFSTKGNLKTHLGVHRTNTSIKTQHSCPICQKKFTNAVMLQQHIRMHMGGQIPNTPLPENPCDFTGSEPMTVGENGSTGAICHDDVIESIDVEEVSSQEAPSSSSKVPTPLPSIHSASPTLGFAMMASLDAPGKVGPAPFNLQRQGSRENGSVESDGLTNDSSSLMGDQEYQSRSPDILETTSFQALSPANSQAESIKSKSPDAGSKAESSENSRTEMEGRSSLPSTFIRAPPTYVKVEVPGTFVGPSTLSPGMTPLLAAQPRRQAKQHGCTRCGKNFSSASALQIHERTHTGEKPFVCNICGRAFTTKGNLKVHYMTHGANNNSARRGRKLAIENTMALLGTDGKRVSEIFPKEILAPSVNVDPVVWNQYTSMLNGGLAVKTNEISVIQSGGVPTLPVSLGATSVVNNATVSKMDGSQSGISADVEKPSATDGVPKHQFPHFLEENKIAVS
Technique: universal PBM
Form: double-stranded DNA, one strand shown
Medium: in vitro
Tested at: 600 nM
Setting: 8-mer, flanks averaged, mean of replicates
Reading: higher = stronger binding
| Strand | E-score |
| --- | --- |
| CGACCCTC | -0.216 |
| CACTTATA | 0.282 |
| CCATATCA | 0.206 |
| TAGTCTGA | 0.0153 |
| AAAACCCC | -0.175 |
| AATCCTCC | -0.169 |
| CAGGTGAC | -0.209 |
| TTAGCGAA | 0.0596 |
| ATCGTGCC | -0.136 |
| GAATGAGC | 0.124 |
| GGCAAAAC | 0.14 |
| CTTTGCAA | 0.109 |
| GAAATATC | 0.239 |
| AACAATAC | 0.212 |
| AAGCGCGG | -0.277 |
| GTCACACA | -0.0154 |
| CAAATCTA | 0.213 |
| GTTGAGTA | 0.135 |
| GAACAGCC | -0.292 |
| AGGTACCT | -0.298 |
| TAATTAAA | 0.376 |
| TCACCTGA | -0.0437 |
| AGGACACC | -0.221 |
| GAACTAAC | -0.104 |
| ATCACCTC | 0.0549 |

Series 4
Target: POU, POU domain (Salpingoeca helianthica)
Technique: Spec-seq
Form: double-stranded DNA, one strand shown
Medium: in vitro
Tested at: not given
Setting: whole probe, mean of replicates
Relative to: not given
Reading: lower = stronger binding
All sequences stand within: GAGTCGTCTCGTCAGCAC … CCGTAGAGCACTCAGGTC
Target sequence (chain): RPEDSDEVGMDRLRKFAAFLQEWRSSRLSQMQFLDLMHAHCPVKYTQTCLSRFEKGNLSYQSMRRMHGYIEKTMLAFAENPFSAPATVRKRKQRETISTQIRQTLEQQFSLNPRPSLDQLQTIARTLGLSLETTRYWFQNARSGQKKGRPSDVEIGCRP
| Strand | relative binding energy |
| --- | --- |
| ATGTTGAT | 1.15 ln ratio |
| GGTGTAAT | 0.76 ln ratio |
| ATGCTTCA | 1.49 ln ratio |
| TGGGTAAT | 0.68 ln ratio |
| ATATCCAT | 1.15 ln ratio |
| ATTGCCAT | 1.21 ln ratio |
| TGGTTAAT | -0.487 ln ratio |
| ATGTCCAT | 1.14 ln ratio |
| ATGCACCC | 1.81 ln ratio |
| GCATTAAT | -0.0531 ln ratio |
| CGACTAAT | 0.774 ln ratio |
| ATGCCGGG | 1.28 ln ratio |
| ATGGTGAT | 1.21 ln ratio |
| ATGCGTCT | 1.19 ln ratio |
| CCATTAAT | -0.241 ln ratio |
| ATGCTAGA | 1.35 ln ratio |
| ATGCGCTT | 1.19 ln ratio |
| ATAAGGAT | 1.18 ln ratio |

Series 5
Target: Histone acetyltransferase KAT6A, winged helix 1, GST fusion (KAT6A, Homo sapiens, UniProt Q92794, residues 1-85)
Technique: protein binding microarray
Form: double-stranded DNA, one strand shown
Medium: in vitro
Tested at: not given
Setting: 8-mer, flanks averaged, mean of 2 arrays, mostly near background
Relative to: not given
Reading: higher = stronger binding
Construct (chain): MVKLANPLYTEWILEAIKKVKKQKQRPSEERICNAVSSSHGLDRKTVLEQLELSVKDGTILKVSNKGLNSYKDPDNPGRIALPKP
| Strand | E-score |
| --- | --- |
| ATAAACCC | 0.0558 |
| ATCTTGGG | -0.143 |
| CCTCCAAA | -0.0815 |
| ATTAATCG | 0.0697 |
| ATGATCAG | -0.208 |
| CCGCGCTC | 0.378 |
| ACAGATTA | -0.0939 |
| AGCAAAAG | -0.137 |
| AGGTAGCA | -0.277 |
| CAAACCCG | 0.268 |
| GTCGGTCA | 0.00607 |
| TATGCAGA | -0.276 |
| GTATAGAA | -0.115 |
| CCGGTTAG | 0.25 |
| ATTACTAA | -0.0475 |
| ACATACTG | -0.0341 |
| GGACGTGA | -0.0616 |
| ATCACCCA | -0.245 |
| TACAGGTA | -0.0772 |
| CGATTAAG | -0.0118 |
| AGAGTGTA | -0.185 |
| CGTCGAGC | 0.114 |
| CCTCATCA | -0.245 |
| GACGTCGC | 0.187 |
| TCCAAAAA | -0.185 |

Series 6
Target: TAR DNA-binding protein 43, full length, His tag (TARDBP, Homo sapiens, UniProt Q13148, residues 1-414)
Technique: RNA Bind-n-Seq
Form: RNA
Medium: in vitro
Tested at: 20 nM
Setting: 6-mer, flanks averaged, single round
With: 150 mM KCl
Relative to: input library
Reading: higher = stronger binding
| Strand | 6-mer enrichment (R) |
| --- | --- |
| UGUCGA | 0.786 |
| UAGAAC | 0.751 |
| AAGUAU | 0.722 |
| GCCCCC | 0.746 |
| AAAGCU | 0.583 |
| GCUAGC | 0.87 |
| UUAUUA | 0.638 |
| AUGAAC | 0.692 |
| UUACUU | 0.587 |
| CCCACA | 0.645 |
| GGACGG | 4.15 |
| UUUAUA | 0.638 |
| GAUCCC | 0.64 |
| GAACAC | 0.715 |
| AGUAGU | 0.811 |
| AGUACU | 0.593 |
| UGGAUA | 0.776 |
| UCGUGG | 1.36 |
| ACGGGU | 1.97 |

For quick reference, copied from above (series 5):
| Strand | E-score |
| --- | --- |
| CCTCCAAA | -0.0815 |
| ATTAATCG | 0.0697 |
| ATGATCAG | -0.208 |
| CCGCGCTC | 0.378 |
| ACAGATTA | -0.0939 |
| AGCAAAAG | -0.137 |
| AGGTAGCA | -0.277 |
| CAAACCCG | 0.268 |
| GTCGGTCA | 0.00607 |
| TATGCAGA | -0.276 |
| GTATAGAA | -0.115 |
| CCGGTTAG | 0.25 |
| ATTACTAA | -0.0475 |
| ACATACTG | -0.0341 |
| GGACGTGA | -0.0616 |
